# Results pooled from the literature.
# Each line is one published result; not all experiments were run side by side. Numbers after ± are the reported error.
Structure (SMILES),tested on,assay,system,conditions,how to read,measurement,result
Cc1cc(Nc2ccc(S(F)(F)(F)(F)F)cc2)n2nc(C(C)(F)F)nc2n1,Plasmodium falciparum,12-lead Holter ECG,human malaria patients,"oral, 400 mg, QTc above 450 ms",,patients with QTcB above threshold,10%
N#Cc1ccc(Nc2nc(N)cc(Oc3ccc(-c4ccc(C#N)cc4)c(Cl)c3)n2)cc1,MT4 uninfected,,,,,CC50,> 45 µM
COc1cc2c(c(OC)c1OC)C(=O)c1c(cc(C)c(O)c1OC)C2=O,HK-2 co-cultured with HepaRG,MTT,,"33.33 µM, 48 h",reference: untreated control,viability,65.3 ± 4.86%
O=C(O)COCCN1CCN([C@H](c2ccccc2)c2ccc(Cl)cc2)CC1,THP-1,pyroptotic LDH release,,"2 µM, 40 min, with: LPS then nigericin",,inhibition,2.58%
c1csc(CNc2cc[nH]n2)c1,"human peripheral blood lymphocytes, female",,,"225 µg/mL, 20 h, without S9",,cells with structural aberrations,0%
C[C@H]1CN(C2COC2)CCN1c1ccc(Nc2cc(-c3ccnc(N4CCn5c(cc6c5CC(C)(C)C6)C4=O)c3CO)cn(C)c2=O)nc1,human CYP,,human liver microsomes,"1 µM, 60 min, pH 7.4, with: 1-aminobenzotriazole 1000 µM, NADPH",reference: 0 min,remaining compound,94.9 ± 11.2%
CC(C)[C@H](NC(=O)[C@H](Cc1ccc(O)cc1)NC(=O)[C@H](Cc1ccc(O)cc1)NC(=O)[C@@H]1CCCN1C(=O)[C@H](CCC(=O)O)NC(=O)[C@H](CCC(=O)O)NC(=O)[C@H](Cc1c[nH]c2ccccc12)NC(=O)[C@@H]1CCCN1C(=O)[C@@H](NC(=O)[C@H](CCC(N)=O)NC(=O)c1ccc2c(c1)C(=O)OC21c2ccc(O)cc2Oc2cc(O)ccc21)C(C)C)C(=O)N[C@H](C(=O)N[C@@H](CCCCN)C(=O)N[C@@H](CCCCN)C(=O)N[C@@H](CO)C(=O)N[C@@H](CO)C(=O)NCC(=O)NCC(N)=O)C(C)C,,,"human, plasma","intravenous infusion, 189.6 mg, predose, day 1",,plasma concentration,not detected
CCCCc1oc2ccc(NS(C)(=O)=O)cc2c1C(=O)c1ccc(OCCCN(CCCC)CCCC)cc1,H9 human embryonic stem cell aggregates,qRT-PCR,3D aggregates,"0.05 µM, 5 days, developmental toxicity model",direction not given,ALERT score,1
COc1c(O)c(C)cc2c1C(=O)c1c(O)cccc1C2=O,HK-2 co-cultured with HepaRG,MTT,,"66.67 µM, 48 h",reference: untreated control,viability,73.6 ± 6.94%
CCCCc1oc2ccccc2c1C(=O)c1cc(I)c(OCCN(CC)CC)c(I)c1,H9 human embryonic stem cell aggregates,qRT-PCR developmental regulator genes,3D culture,"2 µM, day 5",direction not given,ALERT score,6
COc1cc2c(c(O)c1OC)C(=O)c1c(cc(C)c(O)c1OC)C2=O,HK-2 co-cultured with HepaRG,MTT,,"66.67 µM, 48 h",reference: untreated control,cell viability,36.3 ± 4.84%
CC[C@H]1[C@@H](O)[C@@H]2[C@H](CC[C@]3(C)[C@@H]([C@H](C)CCNC(=O)NS(=O)(=O)c4ccc(C(C)(C)C)cc4)CC[C@@H]23)[C@@]2(C)CC[C@@H](O)C[C@@H]12,"ABCB1 (Homo sapiens, UniProt P08183)",,"human, plasma","dose not given, mean, with: quinidine",,Cmax,33.9 ng/mL
COc1cc2c(c(O)c1OC)C(=O)c1c(cc(C)c(O[C@@H]3O[C@H](CO)[C@@H](O)[C@H](O)[C@H]3O)c1OC)C2=O,HK-2 co-cultured with HepaRG,MTT,,"133.33 µM, 48 h",reference: untreated control,cell viability,84 ± 5.74%
CC(=O)[C@@]1(O)CC[C@H]2[C@@H]3C[C@H](C)C4=CC(=O)C=C[C@]4(C)[C@@]3(F)[C@@H](O)C[C@@]21C,THP-1,pyroptotic LDH release,,"2 µM, 40 min, with: LPS then nigericin",,inhibition,-1.79%
COC(=O)c1cccc(Cn2ccc3ccc(-c4ccc5ccn(Cc6cccc(C(=O)O)c6)c5c4)cc32)c1,human immunodeficiency virus 1,"viral attachment, MAGI cell","MAGI cells, Ba-L",CCR5-tropic,reference: TC50 over IC50,therapeutic index,1.93
COc1cc2c(c(OC)c1OC)-c1c(cc3c(c1OC)OCO3)[C@H](OC(=O)c1ccccc1)[C@@](C)(O)[C@@H](C)C2,human recombinant CYP3A4 and CYP3A5,refers to: 1′-hydroxymidazolam,,"15 min, pH 7.4, with: midazolam 5 µM",reference: CYP3A4 over CYP3A5,IC50 ratio,5.7
CC[C@H](CO)N(CCN(N=O)[C@H](CC)CO)N=O,Salmonella typhimurium,"mutagenicity, Ames plate incorporation",TA1537,"50 µg/plate, without S9, methanol",,revertant colonies per plate,11 ± 6
CC(C)C[C@H](NC(=O)C[C@H](O)[C@H](CC(C)C)NC(=O)[C@H](Cc1c[nH]cn1)NC(=O)CNC(=O)[C@@H](NC(=O)[C@H](C)NC(=O)[C@H](Cc1c[nH]c2ccccc12)NC(=O)[C@H](CCC(N)=O)NC(=O)[C@@H](Cc1ccccc1)NC(=O)COCCOCCNC(=O)CCC(C(=O)O)N1CCN(CC(=O)O)CCN(CC(=O)O)CCN(CC(=O)O)CC1)C(C)C)C(N)=O (some centres unmarked) [lutetium-177 labelled],,,"female BALB/c nu/nu mice, tumor","intravenous, 50 pmol, 1 h",,tissue uptake,10 ± 2 %ID/g
COc1cc(O)c2c(c1)C(=O)c1cc(C)cc(O)c1C2=O,HK-2 co-cultured with HepaRG,MTT,,"133.33 µM, 24 h",reference: untreated control,viability,97.1 ± 13%
CC(C)[C@H](NC(=O)[C@@H](NC(=O)CCCc1cn(CC(O)CN2CCN(CC(=O)O)CCN(CC(=O)O)CCN(CC(=O)O)CC2)nn1)[C@@H](C)O)C(=O)N[C@@H](CCCNC(=N)N)C(=O)N[C@H](C(=O)N[C@@H](CO)C(=O)N[C@@H](C)C(=O)N[C@@H](CC(=O)O)C(=O)O)[C@@H](C)O (some centres unmarked),,,"healthy male humans, plasma","intravenous, 0.04 mmol/kg",,AUC(0-inf),1020 ± 244 µg·h/mL
COc1c(O[C@@H]2O[C@H](CO)[C@@H](O)[C@H](O)[C@H]2O)cc2c(c1O)C(=O)c1c(cc(C)c(O)c1OC)C2=O,HK-2 co-cultured with HepaRG,MTT,,"66.67 µM, 24 h",reference: untreated control,cell viability,92.1 ± 11.2%
O=C(Nc1nc2cccc(-c3ccc(CN4CCS(=O)(=O)CC4)cc3)n2n1)C1CC1,,,rheumatoid arthritis patients,"oral, 100 mg twice daily, 4 weeks, TEAE regardless of relatedness",,patients with increased blood calcium,8.3%
Cc1noc(C)c1Cn1cc(N2C(=O)CN(Cc3cccc(O)c3)C2=O)cn1,human blood lymphocytes,,,"1100 µg/mL, 3 h, with 5% S9",,aberrant cells with gaps,4.5%
O=C1c2cccc(O)c2C(=O)c2c(O)cc(CO)cc21,HK-2 co-cultured with HepaRG,MTT,,"133.33 µM, 48 h",reference: untreated control,viability,65.3 ± 7.75%
O=C(/C=C/c1cccnc1)NCCCCC1CCN(C(=O)c2ccccc2)CC1,rat cytochrome P450,inhibitor,rat liver microsomes,"10 µM, 15 min, pH 7.4, with: aminopyrine 2 mM",,aminopyrine N-demethylase activity,5.25 nmol/min/mg
Nc1nc2c(ncn2COCCO)c(=O)[nH]1,HSV-2 strain 333,"viral DNA replication, qPCR",BEAS-2B,,reference: CC50 over IC50,therapeutic index,> 100

# Some of these lines once more:
Structure (SMILES),tested on,assay,system,conditions,how to read,measurement,result
COC(=O)c1cccc(Cn2ccc3ccc(-c4ccc5ccn(Cc6cccc(C(=O)O)c6)c5c4)cc32)c1,human immunodeficiency virus 1,"viral attachment, MAGI cell","MAGI cells, Ba-L",CCR5-tropic,reference: TC50 over IC50,therapeutic index,1.93
COc1cc2c(c(OC)c1OC)-c1c(cc3c(c1OC)OCO3)[C@H](OC(=O)c1ccccc1)[C@@](C)(O)[C@@H](C)C2,human recombinant CYP3A4 and CYP3A5,refers to: 1′-hydroxymidazolam,,"15 min, pH 7.4, with: midazolam 5 µM",reference: CYP3A4 over CYP3A5,IC50 ratio,5.7
CC[C@H](CO)N(CCN(N=O)[C@H](CC)CO)N=O,Salmonella typhimurium,"mutagenicity, Ames plate incorporation",TA1537,"50 µg/plate, without S9, methanol",,revertant colonies per plate,11 ± 6
